Measurements collected from several papers.
A part holds a random share of what one study measured. Changes are numbered by the printed parent chain.

Series 1
Target: RNA binding protein fox-1 homolog 2, RRM domain, GST-SBP tag (RBFOX2, Homo sapiens, UniProt O43251-10, residues 100-194)
Method: RNA Bind-n-Seq
Form: RNA
Sample: in vitro
Tested at: 365 nM
Setting: natural RNA segment, single round, ends assumed
Reference: no-protein control
Direction: higher = stronger binding
Endpoint: RBNS enrichment (R)
Constant ends, left off below: GGGAGUUCUACAGUCCGACGAUC … UGGAAUUCUCGGGUGCCAA
Residues (chain): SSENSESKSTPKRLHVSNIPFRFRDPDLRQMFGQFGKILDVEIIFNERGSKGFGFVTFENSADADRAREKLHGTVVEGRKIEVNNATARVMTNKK
CUUCAUUGUUAUAUUGCAGUAAAAGUUUUAAAACAACCAUUGCAUGUUUGCUUUUGAUGUAUCCCUUUGUGAAAUUAGCACUUUUGGGGCCAAUGGAGAAAUGCAGCAUU: 1.92
GAUGGCUCUUGUUCAGUCAAGACCCCAGACUCUGGCCACAAAAAUGCCAUAAUGCCUGUUGGUAUUUGGCAAAGCACUGACCCGUGUCCUCCGUUGCUCGCACUGGGGUC: 0.322
GCAUGGACCAGCACCACUGCCUGGCCAUAACUUCAGUGUCUCCUAACUGGGUGUGCUUUAUAGCUCCAGCUUCCUGGGAGGAGCAGUGGAGCCAGCUCCCUCACCCCUUC: 0.415
UGAGCUGCUACAAAAUGAAGCAAAAACACUCUUGGCUCAAGCUAACAGCAAGCUCCAGCUGUUGGAAGGCUUAGAAAGAAAAUAUGAGGACAAUCAAAAAUACUUAGAAG: 0.386
CUUUGGGUCGACAUAGUAUGGAAGUAUUUGAGAGAGAGAACCUUUCCACUCCCACUGCCAGGAUUUUGUAUUGCCAUCGGGUGCCAAAUAAAUGCUCAUAUUUAUUACUG: 0.658
AACAUGGAGGUGAUAUGUUACACAGUAAACACCUGCCAACCCCUGUACUCCCCUUUGCUCCAUCAGUUAUCAGGAAGGAGAACUAAGGAGGGAGGAAGCUUAUUAGGUUC: 0.299
CACUGCCCCUCUCCCUCAAGCCUAAGACACUAAGACCCCAGACCCAAAGCCAAGUCCACCAGAGUGGCUGCAGGCCAGGCCUGGAGUCCCCGUGGGUCAAGCAUUUGUCU: 0.248
CAGGGGAAGACCAAAGUUUGCAACUCGAACUGCUUUCGUCCAUGUUUCUCACAUUGCUGUAUUUUAGAAAAUAGGGGUUAAGACUGAUAACAACCUUUUACAUUGUGACU: 1.21
AAAAUUUUCAUGGUAAAAUGCCAGCAUGUAUGUACUUGUGUAGUGUGUACUUCUAAACAGAGAAGGCUUAUAAAAGUAAAUGCAUUAAGGCCAAGUGCAGUGGCUCACAC: 3.85
UGGUUUGACUGACAUUAAAGCCAGUGUUAAAAACUAAAGCUUAGCAACAAAUGUUUUACUAUUUUUACAGGAUACUGUAAGGAAUAAUUUGACUUUUAAGAAAUCUUAAA: 0.421

Series 2
Target: ABI1, truncated, D143A, DHFR fusion (Arabidopsis thaliana)
Method: DHFR PCA, deep sequencing
Sample: yeast
Setting: methotrexate growth selection, single substitutions
With: (+)-ABA 0 µM
Reference: wild-type fitted maximum
Direction: higher = stronger binding
Endpoint: relative binding score
Starting sequence: PYL1, truncated, DHFR fusion (Arabidopsis thaliana); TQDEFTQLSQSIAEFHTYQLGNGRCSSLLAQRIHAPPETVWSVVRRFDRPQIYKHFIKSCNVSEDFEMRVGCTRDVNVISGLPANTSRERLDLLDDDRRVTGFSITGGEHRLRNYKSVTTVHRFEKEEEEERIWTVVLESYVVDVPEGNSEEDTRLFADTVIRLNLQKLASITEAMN
T135F: -7.38%
V145I: 38.3%
Y115D: 2.02%
F56A: 6.54%
K58D: 3.5%
M68Y: 2.33%
P50T: -1.23%
F15S: 1.78%
T17N: 4.97%
P146D: -7.82%
R113Y: -3.36%

Series 3
Target: CCNB1, cyclin fold, Cln2 fusion (human)
Method: yeast growth competition, sequencing
Sample: yeast
Setting: weak parent motif
Reference: not given
Direction: higher = stronger binding
Endpoint: normalised enrichment score
Starting sequence: SLBP docking peptide (human); ARYKRKLLINDFG
Y3A: 2.53
K4N: 0.739
N10S: 0.891
D11E: 0.996
D11M: 0.863
R2T: 1.01
Y3F: 0.383

Other studies, line by line
PhoQ, residues 284 288 289 292 302 303 SMMNNA — fold induction (PhoP, residues 12 14 15 18 19 NIMAP (Escherichia coli, UniProt P23836); Sort-seq, measured: YFP reporter; E. coli; PhoQ-PhoP variant library, with: 10 µM Mg2+; reference: high Mg2+ state, higher = stronger signaling): 1.13

Some of these lines once more (series 3):
N10S: 0.891
D11E: 0.996
D11M: 0.863
R2T: 1.01
